Published values pooled from the literature.
“And” joins repeats or separate records; there may be more than shown. Numbers after ± are the reported error.
B1: recombinant human GDNF; sequence looked up; chain SPDKQMAVLPRRERNRQAAAANPENSRGKGRRGQRGKNRGCVLTAIHLNVTDLGLGYETKEELIFRYCSGSCDAAETTYDKILKNLSRNRRLVSDKVGQACCRPIAFDDDLSFLDDNLVYHILRKHSAKRCGCI
B2: interferon gamma; sequence looked up; chain QDPYVKEAENLKKYFNAGHSDVADNGTLFLGILKNWKEESDRKIMQSQIVSFYFKLFKNFKDDQSIQKSVETIKEDMNVKFFNSNKKKRDDFEKLTNYSVTDLNVQRKAIHELIQVMAELSPAAKTGKRKRSQMLFRG
B3: human SCYL2; sequence looked up; chain MESMLNKLKSTVTKVTADVTSAVMGNPVTREFDVGRHIASGGNGLAWKIFNGTKKSTKQEVAVFVFDKKLIDKYQKFEKDQIIDSLKRGVQQLTRLRHPRLLTVQHPLEESRDCLAFCTEPVFASLANVLGNWENLPSPISPDIKDYKLYDVETKYGLLQVSEGLSFLHSSVKMVHGNITPENIILNKSGAWKIMGFDFCVSSTNPSEQEPKFPCKEWDPNLPSLCLPNPEYLAPEYILSVSCETASDMYSLGTVMYAVFNKGKPIFEVNKQDIYKSFSRQLDQLSRLGSSSLTNIPEEVREHVKLLLNVTPTVRPDADQMTKIPFFDDVGAVTLQYFDTLFQRDNLQKSQFFKGLPKVLPKLPKRVIVQRILPCLTSEFVNPDMVPFVLPNVLLIAEECTKEEYVKLILPELGPVFKQQEPIQILLIFLQKMDLLLTKTPPDEIKNSVLPMVYRALEAPSIQIQELCLNIIPTFANLIDYPSMKNALIPRIKNACLQTSSLAVRVNSLVCLGKILEYLDKWFVLDDILPFLQQIPSKEPAVLMGILGIYKCTFTHKKLGITKEQLAGKVLPHLIPLSIENNLNLNQFNSFISVIKEMLNRLESEHKTKLEQLHIMQEQQKSLDIGNQMNVSEEMKVTNIGNQQIDKVFNNIGADLLTGSESENKEDGLQNKHKRASLTLEEKQKLAKEQEQAQKLKSQQPLKPQVHTPVATVKQTKDLTDTLMDNMSSLTSLSVSTPKSSASSTFTSVPSMGIGMMFSTPTDNTKRNLTNGLNANMGFQTSGFNMPVNTNQNFYSSPSTVGVTKMTLGTPPTLPNFNALSVPPAGAKQTQQRPTDMSALNNLFGPQKPKVSMNQLSQQKPNQWLNQFVPPQGSPTMGSSVMGTQMNVIGQSAFGMQGNPFFNPQNFAQPPTTMTNSSSASNDLKDLFG

GRKKRRQRRRPQ  effective concentration (fear memory recall; peptide, mouse; retro-orbital, dose not given): ≥ 10 mM
B1 (recombinant human GDNF)  TH-immunoreactive cell count (CNN cell counting, item: tyrosine hydroxylase; rat, 6-OHDA lesion model, substantia nigra pars compacta, intact side; 3 µg/24 h): 1340 ± 152
liraglutide  liver cholesterol (Wistar rat, female, diet-induced obese, liver tissue; subcutaneous, dose not given, after 4 weeks treatment): 3.1 ± 0.6 mg/dL
B2 (interferon gamma)  urine albumin/creatinine ratio (proteinuria inducer; FVB mice; dose not given, 0 h): 47.9 and 15.9 and 16.1 and 33.4 and 21.5 and 17.4 and 17.8 and 16.9
cotadutide  metabolite level (metabolomics, item: hepatic methionine; ob/ob mice on AMLN diet, NASH model, liver; dose not given): 1.05 ± 0.08 scaled intensity
RQLRNWTSAEGLLRVHARL  interferon gamma secretion (Luminex, item: IFN-γ; peptide, NOD-DR3 mice, peptide-immunized, splenocytes; dose not given, 48 h): > 1000 pg/mL
heparin sodium  AUEC of aPTT ratio (human; intravenous infusion, 8 IU/kg/h, day 1 to 6; baseline: baseline): 149
semaglutide  serum cholesterol (Wistar rat, male, diet-induced obese, blood, fasted; subcutaneous, dose not given, after 10 weeks treatment): 89 ± 6 mg/dL
colistin  MIC (Pseudomonas aeruginosa; clinical isolate RKI 81/10): ≤ 1 µg/mL
Pam2CSK4  GFAP level (APP/PS1 mouse, cortex; local injection, dose not given, unit not given; baseline: injected over adjacent side): 0.512 and 1.23 and 0.869
difelikefalin  PGIC very much worse (Japanese haemodialysis patients with pruritus; intravenous, 0.25 µg/kg, 8 weeks): 0%
insulin degludec  C-peptide reduction (euglycemic clamp; healthy human volunteers, C-peptide reduction below 50%, serum; subcutaneous, 0.4 IU/kg; baseline: baseline): 35.2 ± 12.1%
B3 (human SCYL2)  log2 fold change (PP6C (human); co-immunoprecipitation, IP-MS; CYB5R4 knockout cells; concentration not given; baseline: CYB5R4 knockout over parental): -0.89
rifaximin  IC50 (cell-free protein synthesis, inhibitor; Escherichia coli S30 extract): 24 ± 6 nM
human pyruvate kinase PKM  log2 fold change (PP6C (human); co-immunoprecipitation, IP-MS; CYB5R4 knockout cells; concentration not given; baseline: CYB5R4 knockout over parental): 0.52
KCNTATCATQRLANFLVHSSNNFGPILPPTNVGSNTY (Pramlintide; sequence looked up)  Aβ1-42 level (ELISA; peptide, Tg2576 mouse, CSF; intraperitoneal, dose not given, 10 weeks daily): 46.5 ± 2.51 pg/mL
maraviroc  protein level (Western blot; HIV-infected mice, frontal cortex; i.p., 120 mg/kg twice daily, 3 weeks post infection; baseline: HIV-infected untreated mice, decrease): 1.95 fold
REGYEMVFDGKPQHTNVCF  interferon gamma secretion (Luminex, item: IFN-γ; peptide, NOD-DR3 mice, peptide-immunized, splenocytes; dose not given, 48 h): > 1000 pg/mL
somatropin  liver stiffness (Children, Prader-Willi syndrome; dose not given, 6 months; baseline: baseline): no effect
GWTLNSAGYLLGPHAVGNHRSFSDKNGLTS-NH2 (C-amide)  mRNA level (RT-qPCR, item: Ocln; peptide, mouse, DSS-induced colitis, colon; ip, 3 µM, 3% DSS, unit not given; baseline: Gapdh): 1.48 and 2.3 and 3 and 1.62

A few entries again:
insulin degludec  C-peptide reduction (euglycemic clamp; healthy human volunteers, C-peptide reduction below 50%, serum; subcutaneous, 0.4 IU/kg; baseline: baseline): 35.2 ± 12.1%
B3 (human SCYL2)  log2 fold change (PP6C (human); co-immunoprecipitation, IP-MS; CYB5R4 knockout cells; concentration not given; baseline: CYB5R4 knockout over parental): -0.89
